Results gathered from unrelated publications.
Protocols differ between the studies behind these lines. Values joined by “and” are separate records of one study, mostly repeats; a detail may differ. Numbers after ± are the reported error.

Structure (SMILES)	target or system	test	system	conditions	scale	endpoint	result
Cc1n[nH]c(C)c1CCCOc1cc(OCCCCCCNCCOCCOCCn2cc(CNc3ccc(C(=O)O)cc3)nn2)cc(C(=O)O)c1	MCF7	cell growth or viability, MTT		100 µM, 72 h		viability	104% and 111% and 90%
O=C1NC2(CC2)COc2ncc(F)cc2[C@H]2COCCN2c2ccn3ncc1c3n2			Sprague-Dawley rat, male, serum	oral, 10 mg/kg/day, end of treatment, 4-week repeated-dose toxicity		albumin/globulin ratio	1.21 ± 0.39
O=c1n(CCNCCOS(=O)(=O)c2ccccc2)c(=O)n(S(=O)(=O)c2ccccc2)c(=O)n1S(=O)(=O)c1ccccc1	HUVEC	cell growth or viability, MTT		200 µg/mL, 48 h		viability	17.9%
CNC(=O)CC[C@H](Cc1ccccc1)NC(=O)[C@@H](Cc1ccc(Cl)cc1Cl)NC(=O)[C@H](N)Cc1ccccc1[N+](=O)[O-]	Huh-7-ACE2	CellTiter-Glo		0.781 µM, 48 h, unit not given	relative to: DMSO	viability	0.989 and 0.912 and 0.939
CC(=O)N[C@@H](Cc1c[nH]c2ccccc12)C(=O)NCCCCCCCCCCCC(=O)NCCCC[C@@H]1NC(=O)[C@H](CCCNC(=N)N)NC(=O)[C@H](CCCNC(=N)N)NC(=O)[C@H](CCCNC(=N)N)NC(=O)[C@H](CCCNC(=N)N)NC(=O)[C@H](CCCNC(=N)N)NC1=O	HEK-293T	MTS		concentration not given, 24 h, up to 10 µM		viability	≥ 86%
COC(=O)c1cc2c(=O)n3ccccc3nc2n1Cc1ccccc1	Vero	MTT		1.6 µM, 24 (unit not given)		viability	78.9%
CC[C@H](C)[C@H](NC(=O)[C@H](C)NC(=O)[C@H](CCCCN)NC(=O)[C@H](CC(C)C)NC(=O)[C@@H](N)Cc1ccccc1)C(=O)N[C@@H](CCCCN)C(=O)N[C@@H](CCCCN)C(=O)N[C@@H](Cc1ccccc1)C(=O)NCC(=O)N[C@@H](CCCCN)C(=O)N[C@@H](CCC(=O)O)C(=O)N[C@@H](Cc1ccccc1)C(=O)N[C@@H](CCCCN)C(=O)N[C@@H](CCCCN)C(=O)N[C@H](C(=O)NCC(=O)N[C@@H](C)C(=O)N[C@@H](CCCCN)C(=O)N[C@@H](CC(C)C)C(=O)N[C@@H](CCCCN)C(=O)O)[C@@H](C)CC	HeLa	cell growth or viability, MTT		64 µg/mL		viability	93.4%
CNC(=O)C[C@H](Cc1ccc(F)cc1)NC(=O)[C@@H](Cc1ccc(Cl)cc1Cl)NC(=O)[C@H](N)Cc1ccccc1C#N	Huh-7-ACE2	CellTiter-Glo		0.0244 µM, 48 h, unit not given	relative to: DMSO	viability	1.01 and 0.877 and 0.909
NC(=O)N/N=C/c1ccc(OCc2ccccc2)cc1	IMR-32	MTT		300 µg/mL, 24 h	relative to: untreated control	viability	30.3%
CC[C@H](C)[C@H](NC(=O)[C@H](C)NC(=O)[C@H](CCCCN)NC(=O)[C@H](CCCCN)NC(=O)[C@@H](N)CCCNC(=N)N)C(=O)N[C@@H](CCCCN)C(=O)N[C@@H](CC(C)C)C(=O)N[C@H](C(=O)N[C@@H](CCCCN)C(=O)N[C@@H](CCCCN)C(=O)N[C@@H](CC(C)C)C(=O)N[C@H](C(=O)N[C@@H](CCCCN)C(=O)N[C@@H](CCCCN)C(=O)N[C@@H](CC(C)C)C(=O)N[C@@H](CCCCN)C(=O)N[C@@H](CCCCN)C(=O)N[C@@H](C)C(=O)N[C@@H](CC(C)C)C(=O)N[C@@H](CCCCN)C(=O)O)C(C)C)C(C)C	HeLa	cell growth or viability, MTT		8 µg/mL		viability	92.9%
CNC(=O)C[C@H](Cc1ccncc1)NC(=O)[C@@H](Cc1cccc(Br)c1)NC(=O)[C@@H](N)Cc1ccsc1	Huh-7-ACE2	CellTiter-Glo		1.562 µM, 48 h, unit not given	relative to: DMSO	viability	1.01 and 0.942 and 0.975

Repeated from above:
Structure (SMILES)	target or system	test	system	conditions	scale	endpoint	result
CNC(=O)C[C@H](Cc1ccncc1)NC(=O)[C@@H](Cc1cccc(Br)c1)NC(=O)[C@@H](N)Cc1ccsc1	Huh-7-ACE2	CellTiter-Glo		1.562 µM, 48 h, unit not given	relative to: DMSO	viability	1.01 and 0.942 and 0.975
